# Measured values collected from several papers.
# Parts stem from different laboratories: compare values within a part only.
# UniProt Q9BYP7, sequence (whole entry, looked up): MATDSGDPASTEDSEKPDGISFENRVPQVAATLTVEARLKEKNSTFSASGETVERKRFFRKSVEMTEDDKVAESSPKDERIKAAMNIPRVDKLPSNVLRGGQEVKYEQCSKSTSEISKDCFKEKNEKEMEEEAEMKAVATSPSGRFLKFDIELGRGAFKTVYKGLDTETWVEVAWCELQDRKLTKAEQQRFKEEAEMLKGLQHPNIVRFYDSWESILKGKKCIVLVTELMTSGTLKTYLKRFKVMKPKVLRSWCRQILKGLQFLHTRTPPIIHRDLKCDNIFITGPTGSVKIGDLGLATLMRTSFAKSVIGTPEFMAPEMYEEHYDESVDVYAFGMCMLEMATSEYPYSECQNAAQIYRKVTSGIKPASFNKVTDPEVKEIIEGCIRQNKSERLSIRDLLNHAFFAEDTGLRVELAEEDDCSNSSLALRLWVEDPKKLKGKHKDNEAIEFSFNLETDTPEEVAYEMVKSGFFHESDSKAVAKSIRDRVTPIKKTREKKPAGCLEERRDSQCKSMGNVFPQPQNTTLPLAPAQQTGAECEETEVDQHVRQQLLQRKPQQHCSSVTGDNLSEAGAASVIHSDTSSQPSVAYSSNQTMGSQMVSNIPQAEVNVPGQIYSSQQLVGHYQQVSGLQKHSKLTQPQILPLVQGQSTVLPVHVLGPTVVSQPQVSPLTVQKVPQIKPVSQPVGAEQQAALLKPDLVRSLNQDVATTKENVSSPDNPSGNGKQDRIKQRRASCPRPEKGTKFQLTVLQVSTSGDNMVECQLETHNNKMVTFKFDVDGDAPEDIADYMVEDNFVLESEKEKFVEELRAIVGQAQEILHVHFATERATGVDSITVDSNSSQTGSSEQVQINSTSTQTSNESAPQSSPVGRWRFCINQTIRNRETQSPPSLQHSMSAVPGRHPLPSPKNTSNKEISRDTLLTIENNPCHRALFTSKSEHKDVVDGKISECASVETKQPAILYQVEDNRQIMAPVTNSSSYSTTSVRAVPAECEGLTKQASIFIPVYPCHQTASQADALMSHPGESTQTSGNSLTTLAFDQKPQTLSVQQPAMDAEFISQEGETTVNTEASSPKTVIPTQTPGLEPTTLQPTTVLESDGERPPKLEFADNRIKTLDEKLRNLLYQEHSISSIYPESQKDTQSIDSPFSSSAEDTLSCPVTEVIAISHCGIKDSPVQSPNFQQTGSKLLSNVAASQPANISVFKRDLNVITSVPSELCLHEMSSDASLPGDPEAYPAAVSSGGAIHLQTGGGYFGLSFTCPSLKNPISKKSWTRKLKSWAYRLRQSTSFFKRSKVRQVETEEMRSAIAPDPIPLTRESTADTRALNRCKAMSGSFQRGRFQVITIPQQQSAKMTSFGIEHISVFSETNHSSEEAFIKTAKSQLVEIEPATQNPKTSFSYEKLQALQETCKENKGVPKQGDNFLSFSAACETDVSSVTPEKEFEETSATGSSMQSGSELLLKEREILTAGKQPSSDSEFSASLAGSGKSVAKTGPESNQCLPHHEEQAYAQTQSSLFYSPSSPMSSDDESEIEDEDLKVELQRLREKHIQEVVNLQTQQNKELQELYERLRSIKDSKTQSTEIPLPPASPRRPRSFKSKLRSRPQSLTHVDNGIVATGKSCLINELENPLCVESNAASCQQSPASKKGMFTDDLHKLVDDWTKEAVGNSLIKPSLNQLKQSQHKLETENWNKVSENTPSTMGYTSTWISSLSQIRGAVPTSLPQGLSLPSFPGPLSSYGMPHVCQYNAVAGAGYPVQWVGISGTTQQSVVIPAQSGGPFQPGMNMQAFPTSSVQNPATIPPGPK

# Set 1
# Target: PABPC1L2, full length, GST fusion (mouse, UniProt A0ABA7IW68)
# Method: RNAcompete
# Molecule type: RNA
# Sample: in vitro
# Concentration: 20 nM
# Notes: 7-mer, probes averaged, single round
# Reference: mean of 7-mers
# Reading: higher = stronger binding
# Residues (chain): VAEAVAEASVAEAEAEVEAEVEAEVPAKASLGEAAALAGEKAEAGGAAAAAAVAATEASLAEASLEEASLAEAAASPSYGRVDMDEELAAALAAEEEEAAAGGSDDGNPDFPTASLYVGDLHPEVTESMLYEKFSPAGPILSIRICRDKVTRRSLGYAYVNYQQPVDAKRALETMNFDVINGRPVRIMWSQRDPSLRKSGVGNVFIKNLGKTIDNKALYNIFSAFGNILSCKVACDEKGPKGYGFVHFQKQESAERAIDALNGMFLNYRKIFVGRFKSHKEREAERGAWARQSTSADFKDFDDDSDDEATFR
Oligonucleotide,7-mer Z-score
GGACAGA,0.28
ACUCCGA,-0.229
UCUCUGC,-0.249
AAGUGGA,0.43
CUUCGUA,-0.3
CGUGAGG,-0.34
ACACUCA,0.0315
UCAGUUC,-0.427

# Set 2
# Target: Ras GTPase-activating protein-binding protein 1, C-terminal RGG region (G3BP1, Homo sapiens, UniProt Q13283)
# UniProt Q13283, sequence (whole entry, looked up): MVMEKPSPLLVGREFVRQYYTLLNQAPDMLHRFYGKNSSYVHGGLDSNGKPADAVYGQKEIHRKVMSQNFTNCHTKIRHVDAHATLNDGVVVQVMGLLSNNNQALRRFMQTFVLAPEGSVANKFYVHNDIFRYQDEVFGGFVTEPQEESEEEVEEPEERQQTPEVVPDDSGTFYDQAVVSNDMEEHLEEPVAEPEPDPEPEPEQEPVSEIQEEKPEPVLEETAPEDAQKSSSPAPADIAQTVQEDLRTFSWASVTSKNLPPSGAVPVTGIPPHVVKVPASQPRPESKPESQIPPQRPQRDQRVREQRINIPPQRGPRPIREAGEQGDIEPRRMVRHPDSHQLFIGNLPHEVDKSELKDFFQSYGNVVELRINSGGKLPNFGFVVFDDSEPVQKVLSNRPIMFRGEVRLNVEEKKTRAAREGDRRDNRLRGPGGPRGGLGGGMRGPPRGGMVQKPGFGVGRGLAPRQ
# Method: RNA Bind-n-Seq
# Molecule type: RNA
# Sample: in vitro
# Concentration: 1 µM
# Notes: whole 134-nt RNA, ends assumed
# Added: 150 mM KCl
# Reference: input library
# Reading: higher = stronger binding
# Constant ends, left off below: GGGAGUUCUACAGUCCGACGAUC … UGGAAUUCUCGGGUGUCAAGG
Oligonucleotide,log2 enrichment
ACCAUGCAGGUGGGCAUCUUUGGGAAGUGGGGCAAGGGGGGGAUAGGGAGGGGGGUAACACUUUGGGAACAGGUGGUCCCAGGAAAUUUC,-0.791
UGGCCUGCACAUUCAGCUGCAUGAUGAAGUUCACUGUCAAGGACUGUGAUCCCACCACUGGGGAGACUGAUGACGAAGGCUAUGAGGAUG,-0.963
AGUCCUGUGCUACACAUCGUAUGUACCGAAUCGGGAAAAAGGGAAAAAGGGAAAGGGAAAGUAUUAUGUUACGCCGUUCGGAUCUGCACU,0.302
UCCUGUGCUACACAUCGUAUGUACCGAAUCGGGUUUUUUUGGGAAAAAAAGGGAAAGGGAAAGUAUUAUGUUACGCCGUUCGGAUCUGCA,-0.98
UCAAGUCCUGUGCUACACAUCGUAUGUACCGAAUCGGGAAAGGGUGGGUUUGGGAAAGUAUUAUGUUACGCCGUUCGGAUCUGCACUUCC,2.03
UAACUUUAGAGGAGGAUCUGAUGGAUAUGGCAGUGGACGUGGAUUUGGGGAUGGCUAUAAUGGGUAUGGAGGAGGACCUGGUGGUGGCAA,-1.07
GGAUUGGUAGCUUAUGUCGAUCUUGAUGAAAGAGCAAUUGAUGCUCUCAGGGAAUUUAAUGAAGAAGGAGCUCUGUCUGUACUACAGCAG,-1.82
GUCCUGUGCUACACAUCGUAUGUACCGAAUCGGUUUUUGGUUUUUUUGGUUUUUUUGGAAAGUAUUAUGUUACGCCGUUCGGAUCUGCAC,-1.48

# Set 3
# Target: Hepatocyte nuclear factor 3-alpha (Foxa1, Mus musculus, UniProt P35582, residues 1-468, full length assumed)
# Method: EMSA with sequencing
# Molecule type: double-stranded DNA, one strand shown
# Sample: in vitro
# Concentration: 10 and 20 nM
# Notes: whole designed probe, mean of two concentrations, ends assumed
# Reference: negative control set to 0
# Reading: higher = stronger binding
# Constant ends, left off below: GTGAGCGGTGCCCATTGATGGGGAAC … TTTCACTGGGATCGTGGGGAC
# Target sequence (chain): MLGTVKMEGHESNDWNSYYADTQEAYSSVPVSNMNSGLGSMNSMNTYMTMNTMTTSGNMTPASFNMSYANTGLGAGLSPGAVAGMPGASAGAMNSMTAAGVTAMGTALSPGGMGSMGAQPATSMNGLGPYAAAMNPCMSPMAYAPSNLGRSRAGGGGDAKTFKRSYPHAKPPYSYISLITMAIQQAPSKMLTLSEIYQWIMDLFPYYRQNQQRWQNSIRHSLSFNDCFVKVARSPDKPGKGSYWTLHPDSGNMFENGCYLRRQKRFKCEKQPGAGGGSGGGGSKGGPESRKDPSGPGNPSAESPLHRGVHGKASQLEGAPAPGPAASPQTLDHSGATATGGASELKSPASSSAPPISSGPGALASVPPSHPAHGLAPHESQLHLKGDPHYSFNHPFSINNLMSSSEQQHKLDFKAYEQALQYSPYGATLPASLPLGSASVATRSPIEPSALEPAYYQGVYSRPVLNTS
Oligonucleotide,normalised bound fraction [ratio]
ATCTTCCCCCTCTTCCTTGCCCCACCAGCTCACCTTCCCGGGTTATTTGCAGATAGGAAAATAAATAAAGCCGGATGAATCATGCCCTCTTCACGCGCATACTGCCAGAGCAAACAGATCTAACATGGTCCTTTGGCGACGCCAGGCTCCGGGAGAGCAAAGCACCGTGTCAGGGCCATGATCCGGGGTGGCC,0.4
CTTTATTTTTCAGGCCATCCGTTGCACACTGGTAAACTGCACATGTGAATGTTTTCAGCCAGGGAAGATTAACCTGAGGACTTGTGATCAGTGTAATCTTGGCTGGGTGGCACATGGTGAGGAAAATCTGGGCTTTTCTTCCCGTTCTTATTATGTTCATGTTCGTGTGTGTGTGTGTGTGTGTGTGTGTGTG,-0.0501
CAAATCAAATGGTCTTGATACCCATGAAATGCTTATCAATATTGATTAATAAACTGCAATTAATATAAAAATTCAGAAACAAAAAAACTGCATGTTTACATTTGAAAGAAGATCAAACTGAAAAAAAGTAGTCTGTTTGGAAAGAAACATTTTAAGAATATCAATAAATTAAATATTCAATTACCTAAGTTAA,0.37
TGAAGTTATAATAGATGTGAGGAGTTTCCTATTGCTGAATATTTACTTTTTCTAGAGGTTAAGAAGAGCTTTTAGAGTCAGAAAGACTTGACTTGTTGACTCTAAAGTCCTGGCTGGTGGTGGGTGCAGTGACTCACGCCCATAATCTCAACACTTTGGGAGGCCGAGGTGGGTGGATCACTTGAGGTCAGGA,0.254
GGGGCATTAGCAACAGACTTTCATAGCTAAACCCTACTAGTTACAGAGATTTATTTATTAGTCCACTGGGCTAGAAAAAAAGCCATTCATATGTAAACAGGGAGATAATAAAGGCTATCACATTTATGTGTATACTCAAATGGAGCAATTTTAATTAACGTCTAAGTACCTTTACATATATTATAATTATTGT,0.294

# Further values, each from its own experiment
SMILES,target,test,setting,quantity,value
CS(=O)(=O)NCC[C@H](NC(=O)c1cncc2c1cnn2-c1ccc(F)cc1)c1ccnc(S(C)(=O)=O)c1,"Serine/threonine-protein kinase WNK3 (WNK3, Homo sapiens, UniProt Q9BYP7)","cell-free assay, competition with immobilised ligand",1 µM,remaining binding,100%

# Some of these lines once more (set 3):
Oligonucleotide,normalised bound fraction [ratio]
TGAAGTTATAATAGATGTGAGGAGTTTCCTATTGCTGAATATTTACTTTTTCTAGAGGTTAAGAAGAGCTTTTAGAGTCAGAAAGACTTGACTTGTTGACTCTAAAGTCCTGGCTGGTGGTGGGTGCAGTGACTCACGCCCATAATCTCAACACTTTGGGAGGCCGAGGTGGGTGGATCACTTGAGGTCAGGA,0.254
ATCTTCCCCCTCTTCCTTGCCCCACCAGCTCACCTTCCCGGGTTATTTGCAGATAGGAAAATAAATAAAGCCGGATGAATCATGCCCTCTTCACGCGCATACTGCCAGAGCAAACAGATCTAACATGGTCCTTTGGCGACGCCAGGCTCCGGGAGAGCAAAGCACCGTGTCAGGGCCATGATCCGGGGTGGCC,0.4
